Measured values gathered from unrelated publications.
Each line is one published result; not all experiments were run side by side. ± marks the error that the study gave.
CFTR del508-508: Cystic fibrosis transmembrane conductance regulator (CFTR, Homo sapiens, UniProt P13569, del508-508)
Chain of UniProt P13569 (whole entry, unmodified, looked up): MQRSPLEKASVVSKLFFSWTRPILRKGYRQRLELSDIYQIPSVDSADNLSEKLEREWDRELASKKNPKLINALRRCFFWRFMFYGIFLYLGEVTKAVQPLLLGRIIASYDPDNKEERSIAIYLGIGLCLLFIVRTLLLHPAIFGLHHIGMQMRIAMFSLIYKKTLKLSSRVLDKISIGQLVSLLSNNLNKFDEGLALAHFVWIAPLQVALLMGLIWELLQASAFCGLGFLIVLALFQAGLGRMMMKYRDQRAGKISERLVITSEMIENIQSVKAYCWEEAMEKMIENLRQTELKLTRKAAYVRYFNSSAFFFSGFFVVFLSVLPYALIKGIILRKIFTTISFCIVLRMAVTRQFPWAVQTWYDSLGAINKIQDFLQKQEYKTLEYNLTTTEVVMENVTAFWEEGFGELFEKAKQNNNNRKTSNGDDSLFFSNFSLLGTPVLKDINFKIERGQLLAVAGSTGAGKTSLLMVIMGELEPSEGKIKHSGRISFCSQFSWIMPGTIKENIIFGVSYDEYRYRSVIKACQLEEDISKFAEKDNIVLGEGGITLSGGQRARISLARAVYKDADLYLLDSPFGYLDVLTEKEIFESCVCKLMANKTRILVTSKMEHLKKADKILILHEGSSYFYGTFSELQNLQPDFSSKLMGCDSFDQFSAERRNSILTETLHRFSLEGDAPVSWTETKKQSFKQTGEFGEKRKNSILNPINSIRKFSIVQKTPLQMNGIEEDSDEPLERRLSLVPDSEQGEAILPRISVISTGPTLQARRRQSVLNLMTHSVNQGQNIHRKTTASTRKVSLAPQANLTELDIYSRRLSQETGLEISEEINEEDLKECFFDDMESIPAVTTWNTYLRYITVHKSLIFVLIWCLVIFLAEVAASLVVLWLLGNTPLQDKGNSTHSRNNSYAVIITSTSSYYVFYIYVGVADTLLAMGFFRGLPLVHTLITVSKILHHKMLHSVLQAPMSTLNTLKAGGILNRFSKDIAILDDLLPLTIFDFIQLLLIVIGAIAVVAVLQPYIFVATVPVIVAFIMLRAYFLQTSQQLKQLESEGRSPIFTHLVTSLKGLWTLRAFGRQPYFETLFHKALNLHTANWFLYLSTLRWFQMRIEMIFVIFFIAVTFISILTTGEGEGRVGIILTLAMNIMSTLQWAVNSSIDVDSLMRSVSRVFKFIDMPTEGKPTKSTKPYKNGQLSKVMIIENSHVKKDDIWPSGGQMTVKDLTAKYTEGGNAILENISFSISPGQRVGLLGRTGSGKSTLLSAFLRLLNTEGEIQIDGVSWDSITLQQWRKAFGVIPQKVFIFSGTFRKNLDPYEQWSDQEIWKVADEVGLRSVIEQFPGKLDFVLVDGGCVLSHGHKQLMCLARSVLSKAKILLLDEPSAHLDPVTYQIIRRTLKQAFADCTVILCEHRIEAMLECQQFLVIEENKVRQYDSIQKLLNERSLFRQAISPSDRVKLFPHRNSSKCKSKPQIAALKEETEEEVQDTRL
CFTR: Cystic fibrosis transmembrane conductance regulator (CFTR, Homo sapiens, UniProt P13569)

Compound | target | assay | system | setting | endpoint | result
CCCCn1cc(S(=O)(=O)Nc2ccc(CC)cc2)c2cccnc21 | CFTR del508-508 | CFTR chloride current, potentiator, short-circuit current | FRT cells expressing CFTR | added: VX-809 corrected | EC50 | 2.9 ± 0.3 µM
Cc1nc(NC(=O)C(C)(C)C)sc1-c1cc(C(=O)NCc2ccccc2)n(Cc2ccccc2)n1 | CFTR del508-508 | iodide influx, corrector, YFP quenching | FRT expressing ΔF508-CFTR and YFP-H148Q/I152L | added: forskolin 20 µM + genistein 50 µM | EC50 | 0.75 µM
O=c1c(-c2cc(Br)ccc2NCc2ccccc2)nc2ccccc2n1Cc1ccccc1 | CFTR | channel activation, activator, YFP halide sensor | FRT cells | approximate, added: 125 nM forskolin | EC50 | ~15 µM
NCCCc1ccccc1 | CFTR | open probability, activator, inside-out patch clamp |  | -80 mV | EC50 | ~6000 µM
O=C1/C(=C/c2ccc(-c3nn[nH]n3)cc2)SC(=S)N1c1cccc(C(F)(F)F)c1 | CFTR | ion current, inhibitor |  |  | IC50 | ~1 µM
COc1ccc(NC(=O)c2cc(-c3sc(NC(=O)C(C)(C)C)nc3C)nn2Cc2cc(Cl)ccc2OC)cc1 | CFTR del508-508 | iodide influx, corrector, YFP quenching | FRT expressing ΔF508-CFTR and YFP-H148Q/I152L | added: forskolin 20 µM + genistein 50 µM | EC50 | 1 µM
N#Cc1ccccc1Cn1c(=O)c(-c2cc(I)ccc2N)nc2ccccc21 | CFTR | ion flux, activator, fluorescence |  |  | EC50 | > 25 µM
C=CCn1nc(-c2sc(NC(=O)C(C)(C)C)nc2C)cc1C(=O)Nc1ccc(OC)cc1 | CFTR del508-508 | iodide influx, corrector, YFP quenching | FRT expressing ΔF508-CFTR and YFP-H148Q/I152L | added: forskolin 20 µM + genistein 50 µM | EC50 | 0.93 µM
Nc1ccc([N+](=O)[O-])cc1-c1nc2ccccc2n(Cc2ccccc2)c1=O | CFTR | ion flux, activator, fluorescence |  |  | EC50 | 0.2 µM

Repeated from above:
Compound | target | assay | system | setting | endpoint | result
Cc1nc(NC(=O)C(C)(C)C)sc1-c1cc(C(=O)NCc2ccccc2)n(Cc2ccccc2)n1 | CFTR del508-508 | iodide influx, corrector, YFP quenching | FRT expressing ΔF508-CFTR and YFP-H148Q/I152L | added: forskolin 20 µM + genistein 50 µM | EC50 | 0.75 µM
